Measurements from different studies.
Parts stem from different laboratories: compare values within a part only. Positions count from the first letter of the parent shown.
Chain of UniProt Q00526 (whole entry, looked up): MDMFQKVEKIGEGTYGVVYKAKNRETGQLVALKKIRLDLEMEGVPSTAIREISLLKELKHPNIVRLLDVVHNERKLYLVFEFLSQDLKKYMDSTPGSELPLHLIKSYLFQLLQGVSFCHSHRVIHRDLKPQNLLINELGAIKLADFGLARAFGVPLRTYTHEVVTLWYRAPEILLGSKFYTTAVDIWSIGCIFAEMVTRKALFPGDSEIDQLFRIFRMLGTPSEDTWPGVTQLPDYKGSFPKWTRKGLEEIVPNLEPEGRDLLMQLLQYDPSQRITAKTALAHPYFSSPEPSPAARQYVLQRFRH

Study 1
Target: Centromere-binding protein 1, full length, N-terminal tag (CBF1, Saccharomyces cerevisiae, UniProt P17106, residues 1-351)
Chain of UniProt P17106 (whole entry, looked up): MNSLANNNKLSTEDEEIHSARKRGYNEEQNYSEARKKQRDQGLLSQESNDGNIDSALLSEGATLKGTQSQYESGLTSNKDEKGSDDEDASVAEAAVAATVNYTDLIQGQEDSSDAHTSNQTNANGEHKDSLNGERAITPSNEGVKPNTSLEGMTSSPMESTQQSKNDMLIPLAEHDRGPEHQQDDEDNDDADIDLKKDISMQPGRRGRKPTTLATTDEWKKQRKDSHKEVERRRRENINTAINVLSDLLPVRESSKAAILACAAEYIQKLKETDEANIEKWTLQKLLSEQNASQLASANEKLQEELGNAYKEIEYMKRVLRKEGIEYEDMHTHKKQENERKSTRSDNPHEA
Method: protein-binding microarray
Form: double-stranded DNA, one strand shown
Medium: in vitro
Tested at: 0.8 µM
Notes: whole 60-bp probe, no competitor
Reading: higher = stronger binding
Measurement: fluorescence intensity
All sequences stand within: … GTCTTGATTCGCTTGACGCTGCTG
GAAGAAAACCCTGATAACGTGGTGTCATTTTTATAG: 810 a.u.
CTAAGATGATATTTCAACATCATGTTTTGCTTATTC: 538 a.u.
GAAGTGCTGGTTCGTGACGTGTAAATTCAGAATTAG: 938 a.u.
CTATCCTCCGTACGTAACATCACTATCCATATATTC: 544 a.u.
GAATCTTTATCTTGAATGGTGATGACAATAGAGTAG: 641 a.u.
CTATTACAATGAATACATGTGATATAGATACTTTTC: 1880 a.u.
GAAATCAGCTTGATTCACGGGATCTTACTTATCTAG: 733 a.u.
CTACCACGCCAACCAAGCCTTACCCTAACCTTATTC: 552 a.u.

Study 2
Target: CCNB1, cyclin fold, Cln2 fusion (human)
Method: yeast growth competition, sequencing
Medium: yeast
Notes: strong parent motif
Baseline: not given
Reading: higher = stronger binding
Measurement: normalised enrichment score
Starting sequence: viral docking peptide; TSVRRALFTGGSD; partner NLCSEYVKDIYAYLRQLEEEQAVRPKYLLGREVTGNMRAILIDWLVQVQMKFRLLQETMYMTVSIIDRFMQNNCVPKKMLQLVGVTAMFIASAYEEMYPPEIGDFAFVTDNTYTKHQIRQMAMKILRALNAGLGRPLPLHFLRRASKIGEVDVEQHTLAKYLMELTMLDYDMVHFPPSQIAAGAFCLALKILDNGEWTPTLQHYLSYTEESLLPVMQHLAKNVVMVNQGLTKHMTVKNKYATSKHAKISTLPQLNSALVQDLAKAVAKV
G10D: 3.8
S12K: 1.02
S12D: 3.68

Study 3
Target: CEP164, C-terminal peptide (human)
Method: DHFR complementation, deep sequencing
Medium: yeast
Notes: single substitutions, model-inferred values
Baseline: wild type
Reading: higher = weaker binding
Measurement: binding free energy change
Starting sequence: PDZK1, PDZ domain 2 (human); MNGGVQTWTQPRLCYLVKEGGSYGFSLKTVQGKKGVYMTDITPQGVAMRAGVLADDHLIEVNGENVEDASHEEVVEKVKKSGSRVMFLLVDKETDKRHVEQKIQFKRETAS; partner HNRVKVYRF
Q104R: -0.187 kcal/mol
G35C: 1.04 kcal/mol
T42Y: 0.559 kcal/mol
I103M: -0.105 kcal/mol
K77S: 0.219 kcal/mol
M48F: -0.185 kcal/mol
G82P: 0.285 kcal/mol
D95T: -0.149 kcal/mol

Further values, each from its own experiment
P1: PafA, mature enzyme, eGFP fusion (Elizabethkingia meningoseptica, UniProt Q9KJX5); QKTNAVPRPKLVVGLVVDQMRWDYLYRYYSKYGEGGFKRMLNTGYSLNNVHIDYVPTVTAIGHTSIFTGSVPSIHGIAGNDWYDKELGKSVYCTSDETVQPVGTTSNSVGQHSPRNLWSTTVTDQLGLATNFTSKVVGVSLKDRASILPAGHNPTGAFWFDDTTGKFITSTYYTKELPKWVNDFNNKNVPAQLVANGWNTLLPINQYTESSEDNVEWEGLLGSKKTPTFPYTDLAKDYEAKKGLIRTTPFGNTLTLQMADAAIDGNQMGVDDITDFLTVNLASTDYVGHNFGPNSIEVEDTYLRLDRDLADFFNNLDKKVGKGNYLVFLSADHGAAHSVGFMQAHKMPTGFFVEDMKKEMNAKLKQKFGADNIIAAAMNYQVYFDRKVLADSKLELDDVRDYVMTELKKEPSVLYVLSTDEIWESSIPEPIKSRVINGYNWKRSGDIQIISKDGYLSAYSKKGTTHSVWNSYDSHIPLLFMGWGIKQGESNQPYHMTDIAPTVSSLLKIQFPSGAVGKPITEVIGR
P1 W22G  oxyanion analog dissociation constant (tungstate, free oxyanion; microfluidic competitive inhibition; in vitro, cell-free expressed; not given, derived from inhibition constants, unchanged parent 2230 nM; lower = stronger binding): 2.33 µM
N/C(=N\[N+](=O)[O-])N/N=C\c1ccc(-c2cccc([N+](=O)[O-])c2)o1  remaining activity (Cyclin-dependent kinase 3, with cyclin E (CDK3, Homo sapiens, UniProt Q00526); enzyme activity, inhibitor; 0.5 µM; baseline: control): 85%
P1 D233G  oxyanion analog dissociation constant (tungstate, free oxyanion; microfluidic competitive inhibition; in vitro, cell-free expressed; not given, derived from inhibition constants, unchanged parent 2230 nM; lower = stronger binding): 2.03 µM

Some of these lines once more (further values, each from its own experiment):
P1 W22G  oxyanion analog dissociation constant (tungstate, free oxyanion; microfluidic competitive inhibition; in vitro, cell-free expressed; not given, derived from inhibition constants, unchanged parent 2230 nM; lower = stronger binding): 2.33 µM
N/C(=N\[N+](=O)[O-])N/N=C\c1ccc(-c2cccc([N+](=O)[O-])c2)o1  remaining activity (Cyclin-dependent kinase 3, with cyclin E (CDK3, Homo sapiens, UniProt Q00526); enzyme activity, inhibitor; 0.5 µM; baseline: control): 85%
P1 D233G  oxyanion analog dissociation constant (tungstate, free oxyanion; microfluidic competitive inhibition; in vitro, cell-free expressed; not given, derived from inhibition constants, unchanged parent 2230 nM; lower = stronger binding): 2.03 µM
